# Experimental data gathered from unrelated publications.
# Numbered parts are unrelated; each lists some results of a single study.

# Sample 1 — technique: RNA Bind-n-Seq; molecule type: RNA; matrix: in vitro; concentration: 200 nM; setting: whole 134-nt RNA, ends assumed; with: 150 mM LiCl; relative to: input library; reading: higher = stronger binding; library: 7-deaza-guanosine replaces G
# Target: Fragile X messenger ribonucleoprotein 1, C-terminal low-complexity region (Fmr1, Mus musculus, UniProt P35922)
# All sequences stand within: GGGAGUUCUACAGUCCGACGAUC … UGGAAUUCUCGGGUGUCAAGG
Strand,log2 enrichment
UCCUCAAGUCCUGUGCUACACAUCGUAUGUACCGAAUCGGGAGGGAGGAGGGAAAGUAUUAUGUUACGCCGUUCGGAUCUGCACUUCCAG,-0.896
UCCUGUGCUACACAUCGUAUGUACCGAAUCGGGGAAAAAGGGGAGGGGUUUUUUUGGGGAAAGUAUUAUGUUACGCCGUUCGGAUCUGCA,0.449
GUCCUGUGCUACACAUCGUAUGUACCGAAUCGGGUUUUUGGGAAAGGGUUUUUUUGGGAAAGUAUUAUGUUACGCCGUUCGGAUCUGCAC,-1.64
UAACUUUAGAGGAGGAUCUGAUGGAUAUGGCAGUGGACGUGGAUUUGGGGAUGGCUAUAAUGGGUAUGGAGGAGGACCUGGAGGUGGCUA,-0.0824
UUUACCCCUCACUGGAGUCAGAUGAAGACAACCCCAUCUUUAAGUCCCGGUCGAAGAAAAGGAAAGGCUCAGACGACGCUCCCUACAGCC,-0.89
AAGUCCUGUGCUACACAUCGUAUGUACCGAAUCGGGUUUUGGUUUUGGGGUUUUGGAAAGUAUUAUGUUACGCCGUUCGGAUCUGCACUU,-1.89
GGUGGACUAUGGUGCAACAGCAGAAGAGCUGGAAGCUCACUUUCAUGGCUGUGGUUCAGUCAACCGUGUUACCAUACUGUGUGACAAAUU,-2.19
CUGCGCGCGGAUUUCCCUCUCUGAGGAAGUUUAUCCUUGUGCCUUCUGGAGGAUUUCUCUCUAGCUCGACUCACUCUGGACUGACUCGCU,-1.56

# Sample 2 — technique: RNA Bind-n-Seq; molecule type: RNA; matrix: in vitro; concentration: 365 nM; relative to: no-protein control; reading: higher = stronger binding
# Target: RNA binding protein fox-1 homolog 2, RRM domain, GST-SBP tag (RBFOX2, Homo sapiens, UniProt O43251-10, residues 100-194)
# Setting: natural RNA segment, single round, ends assumed
# All sequences stand within: GGGAGUUCUACAGUCCGACGAUC … UGGAAUUCUCGGGUGCCAA
# Residues (chain): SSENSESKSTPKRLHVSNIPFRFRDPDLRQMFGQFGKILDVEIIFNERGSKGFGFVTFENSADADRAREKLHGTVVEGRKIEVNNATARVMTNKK
Strand,RBNS enrichment (R)
UAGCUUGUGUUAUCAAAUGUUCUAAUGCAUAUUUAUAAGAGAAAAAAGGUUUAAAGUAUUUAUUCCCAUAACCUCUGCUUAUGGACUCUUUAUUACCUCUGGCUCUCCCG,0.428
UCAUCUGCAUAGUUGCUUGGAUCAUUGUUACAUCAGUUCAGCGCAUAGUAGCAAUUCUGGUGUGGCCAAGGUGUUGGCUGAAGUUUAUUCUUCAUUGGAUGUUUAAAGCA,1.67
UUCAUUCUCUGUAACUUCAGUUCUGGUGUUUUCCUUGAGUAUCUACUUGGCUUCUCGUGGUUUUUCCCACCCCAGCUGCCCCAGCACGCGGGACCCAUAGCACACCCCUU,1.76
CAGACAUCACCAAGUCUCGUCUUCUUUCCUUCCUGUGAGUUGAAACCAAACAGGCCUCUCGCUCACUCCUCCCAGCCCAGUAAUGCUGAGGAGUUCAGUUGUGAGGAAAG,0.207
CUUCUUAAAGCCCAGAGAAAGAGGUUUUUUAAAAGACUGUCGCCAAAUAGCUGAGCCAAAAGGCUGAUCAGAAUUCACUUUUUGGAAUGUGGCAGUUAAACACUACCUUG,0.429
AAUGUUUAAUAUUUAAACAAAAUAUUUAUAUCUACACAAUAAAGUUAAUCAACCUUCAAACCAGUCUUGAAGCCAGCUACUUGUUUCUUCAUCUCAGACUCCUAGGGGAA,0.653
GCACUUCUGAAAUUCCAUAUUUUGUUUGCUGGGGCCUGAGUUUGCUGGCUUUUAAAAUAUAGAUCAGAUCAAUUUACCCGACUUCAUGAAUAAUCCUAAAUUCUCUGGAA,1.08
GCACUCUAUUCCCCCAGCCUCUUUCUGCUUUCAUGCUCAGCACAUCAUCUUCCUAGGCAGUCUCUUCCCCAAAGUCUCACCUUUUCUUCCAAUAGAAAAUUCCGCUUGAC,2.48

# Sample 3 — technique: competition protein-binding microarray; molecule type: double-stranded DNA, one strand shown; matrix: in vitro; concentration: 2 µM; with: Pho4 competitor, 0.05 µM; reading: higher = stronger binding; all sequences stand within: … GTCTTGATTCGCTTGACGCTGCTG
# Target: Centromere-binding protein 1, full length, His-tagged (CBF1, Saccharomyces cerevisiae, UniProt P17106, residues 1-351)
# Sequence of UniProt P17106 (whole entry, looked up): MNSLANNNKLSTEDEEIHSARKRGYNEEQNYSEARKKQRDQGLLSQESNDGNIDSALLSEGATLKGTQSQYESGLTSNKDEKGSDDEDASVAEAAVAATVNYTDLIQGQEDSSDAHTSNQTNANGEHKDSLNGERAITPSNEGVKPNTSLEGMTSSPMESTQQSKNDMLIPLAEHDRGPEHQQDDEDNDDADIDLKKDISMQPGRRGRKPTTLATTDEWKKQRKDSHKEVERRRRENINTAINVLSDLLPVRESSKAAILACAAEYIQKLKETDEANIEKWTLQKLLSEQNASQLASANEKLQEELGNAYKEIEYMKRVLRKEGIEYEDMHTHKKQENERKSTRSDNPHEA
# Setting: whole 60-bp probe, lowest competitor level
Strand,fluorescence intensity [a.u.]
TTCTGGAACAATTATCATGTTTCTCATCTGGGTTCT,124
CTAACGAAGGTTTGCCACGTGGGTGACAAGCCAAGT,883
AACGAATTGAAACGTATCGTGACGGACAATGAAGAA,161
TAGTATTCGATGTGTCTCGTGATGGCTTAATTTCAG,811
TGCCAAGCACTTTTCATCATGACAATTAGGGTAGAT,71.4
TTGCTGGATTCTTATCAGGTGTGGCAGTATGTCCCC,92.6
TTTTTCTCTTGCCGTCACATGATCGCAAAATGGCAA,4870
AAAAGAGGTACGTTGCGCGTGTTTCTAGGGAGAAGA,70.9
CCCTTAGACTTGCTGGGCGTGCGATTCAAGGGACAG,58.5
GCAGGGAGCGTCCAACACGTCAGCGTCAATTCCTTC,57.5
CTAACGAAGGTTTTTCACGTGGAGTACAAGCCAAGT,527
CTTAAAATGTGTACGATGTGTACACATCAACCTACT,101
GAGCAGCGCCCATACAATGTGCGGGCAAGATTTGCC,55.9
TCCACTGAGATGACTACTGTGACGGGTACCAACGGT,64.7
CATACCCAACCTTGACGGGTGGGTGAAGATATTTGT,66.2
TAAGCACCAAATGGAGACGTGGCCGCACCATAATCA,59.2
TTCCAGGAATAAAAGACCGTGCCAGTAATTTCAAGT,96
GAACAAGATTTTTTGCACGTGGTGAGGATGATGAGG,1830
TAGTCTTTGTCTAGCTTCGTGCTTTTTAGCAAAAGC,59.6

# Sample 4 — technique: protein binding microarray; molecule type: double-stranded DNA, one strand shown; matrix: in vitro; concentration: not given; relative to: not given; reading: higher = stronger binding
# Target: Histone acetyltransferase KAT6A, both winged helices, GST fusion (KAT6A, Homo sapiens, UniProt Q92794, residues 1-181)
# Setting: 8-mer, flanks averaged, mean of 2 arrays, mostly near background
# Residues (chain): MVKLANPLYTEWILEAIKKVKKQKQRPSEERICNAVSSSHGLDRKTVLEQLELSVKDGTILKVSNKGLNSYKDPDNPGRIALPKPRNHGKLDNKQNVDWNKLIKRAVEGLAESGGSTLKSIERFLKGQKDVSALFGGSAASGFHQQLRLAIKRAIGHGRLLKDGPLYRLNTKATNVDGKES
Strand,E-score
CGCGACCC,0.175
ACATCTTC,-0.00969
CGGTCCGC,0.28
GGGCCCAA,-0.245
ATATTTCC,0.00961
CTACGCTA,0.124
ATGGTAAC,-0.0602
CGAGTGTC,-0.0161
GATTACCC,0.00157
AATATCAT,0.0687
GTAGCAGA,-0.146
GAATCTTA,-0.0721
CCGTTAAG,0.186
GAGAAAAC,-0.075
GGAAAAAA,0.0857
GCCCGTGA,0.2
AGCGTGGG,-0.0161
GTGTGGCA,-0.144
CCTAAGAC,-0.146
GTCTCTTA,-0.0864
GATCAGAA,-0.108
ACGGAACT,0.23
GGCCGTTA,0.212

# Repeated from above (sample 3):
Strand,fluorescence intensity [a.u.]
TAAGCACCAAATGGAGACGTGGCCGCACCATAATCA,59.2
TTTTTCTCTTGCCGTCACATGATCGCAAAATGGCAA,4870
GAGCAGCGCCCATACAATGTGCGGGCAAGATTTGCC,55.9
CTTAAAATGTGTACGATGTGTACACATCAACCTACT,101
CATACCCAACCTTGACGGGTGGGTGAAGATATTTGT,66.2
TTGCTGGATTCTTATCAGGTGTGGCAGTATGTCCCC,92.6
TAGTCTTTGTCTAGCTTCGTGCTTTTTAGCAAAAGC,59.6
